{"data": "Assay results pooled from the literature", "note": "Protocols differ between the studies behind these lines. ± gives the spread as reported. Where no end group is shown, it is not given here."}
{"Molecule": "COC(=O)[C@H](CO)NC(C)=C1C(=O)C=C2Oc3c(C(C)=O)c(O)c(C)c(O)c3[C@]2(C)C1=O", "organism": "Candida tropicalis", "test": "broth microdilution", "system": "ATCC 750 fluconazole and amphotericin B resistant", "setting": "24 and 48 h", "quantity": "MIC99", "result": "0.22 µM"}
{"Molecule": "CC(C)(C)NC(=O)N(CCCCCCN1C[C@H](O)[C@@H](O)[C@H](O)[C@H]1CO)C1CCCCC1", "organism": "bovine viral diarrhea virus", "system": "MDBK", "setting": "22 h", "quantity": "EC90", "result": "16.3 ± 7.8 µM"}
{"Molecule": "CN[C@@H]1[C@H](O)[C@H](NC)[C@H]2O[C@@]3(O)C(=O)C[C@@H](C)O[C@H]3O[C@@H]2[C@H]1O", "organism": "Neisseria gonorrhoeae", "test": "microbial growth, disc diffusion", "system": "ATCC49226", "setting": "40 µg/disc", "quantity": "inhibition zone", "result": "10 to 11 mm"}
{"Molecule": "COc1cc(NC(C)CCCN)c2nc(C(C)(C)C)ccc2c1Oc1ccc(Cl)c(Cl)c1 (stereo not shown)", "organism": "Staphylococcus aureus", "test": "microbial killing", "system": "ATCC33591 MRSA", "setting": "drug-resistant strain", "quantity": "MBC", "result": "10 µg/mL"}
{"Molecule": "ADVDHVFLRF-NH2 (C-amide)", "organism": "Drosophila melanogaster", "test": "gut contraction", "system": "wandering third instar larval gut", "setting": "injection, 1 µM, within 10 min", "scale": "relative to: DMS effect", "quantity": "inhibition", "result": "95%"}
{"Molecule": "CCCCCCCOc1c(OC)cc(NC(C)CCCNC(=O)C(N)CCSC)c2nc(C(C)(C)C)ccc12 (stereo not shown)", "organism": "Staphylococcus aureus", "test": "microbial killing", "system": "ATCC33591 MRSA", "setting": "drug-resistant strain", "quantity": "MBC", "result": "10 µg/mL"}
{"Molecule": "CC(C)(O/N=C(\\C(=O)N[C@@H]1C(=O)N2C(C(=O)[O-])=C(C[n+]3ccccc3)CS[C@H]12)c1csc(N)n1)C(=O)O", "organism": "Klebsiella pneumoniae", "system": "drug-resistant", "setting": "512 µg/mL, with: TS-CATH 16 µg/mL", "quantity": "time to complete kill", "result": "≤ 4 h"}
{"Molecule": "SSASAW", "organism": "rhesus rotavirus", "test": "viral replication", "system": "peptide, mouse cholangiocytes", "setting": "concentration not given, 18 h, 37 °C", "quantity": "viral yield", "result": "no effect"}
{"Molecule": "CCCCCCOc1c(OC)cc(NC(C)CCCNC(=O)C(N)Cc2cc3ccccc3[nH]2)c2nc(C(C)(C)C)ccc12 (stereo not shown)", "organism": "Staphylococcus aureus", "test": "microbial killing", "system": "ATCC33591 MRSA", "setting": "drug-resistant strain", "quantity": "MBC", "result": "> 20 µg/mL"}
{"Molecule": "DHVFLRF-NH2 (C-amide)", "organism": "Drosophila melanogaster", "test": "heart rate", "system": "adult heart", "setting": "40 nL injected, 1 µM, 10 min", "scale": "relative to: DMS", "quantity": "inhibition", "result": "81%"}
{"Molecule": "CC(=NNC(=O)CN1c2c(-c3ccccc3)n[nH]c2-c2ccccc2S1(=O)=O)c1cc(C)cs1", "organism": "HIV-1", "test": "viral replication", "system": "PBMC", "quantity": "EC90", "result": "> 100 µM"}
{"Molecule": "COc1cc(C=CC(=O)CC(=O)C=Cc2ccc(O)c(OC)c2)ccc1O", "organism": "Plasmodium berghei", "system": "ANKA, C57BL/6 mice, infected", "setting": "oral, 20 and 40 mg/kg", "quantity": "survival time", "result": "22 days"}
{"Molecule": "DVDHVFLRF-NH2 (C-amide)", "organism": "Drosophila melanogaster", "test": "gut contraction", "system": "wandering third instar larval gut", "setting": "injection, 1 µM, within 10 min", "scale": "relative to: DMS effect", "quantity": "inhibition", "result": "17%"}
{"Molecule": "CCCCCOc1c(OC)cc(NC(C)CCCNC(=O)C(N)CC(C)C)c2nc(C(C)(C)C)ccc12 (stereo not shown)", "organism": "Staphylococcus aureus", "test": "microbial growth", "system": "ATCC33591 MRSA", "setting": "drug-resistant strain", "quantity": "IC50", "result": "3.57 µg/mL"}
{"Molecule": "Cc1ccccc1-c1nc(CN2CCC(C(=O)NCCCN3CC(C)CC(C)C3)CC2)c(C)o1 (stereo not shown)", "organism": "Hepatitis C virus", "test": "HCV infection, Gaussia luciferase reporter", "system": "Huh7.5.1 reporter cells", "scale": "relative to: 10 µM cyclosporin A, DMSO, negative means inhibition", "quantity": "maximal response", "result": "-73%"}
{"Molecule": "C=C1[C@@H](C)[C@H]2[C@H](Cc3ccccc3)NC(=O)[C@]23[C@H](O)/C=C/[C@](C)(O)C[C@@H](C)C/C=C/[C@H]3[C@@H]1O", "organism": "Phyllosticta citricarpa", "system": "Citrus sinensis leaf disc", "setting": "10 µL of 10 mg/mL, 21 days, methanol solution", "quantity": "pycnidia number", "result": "172 ± 8"}
{"Molecule": "O=C(CN1c2c(n[nH]c2-c2cccc(Cl)c2)-c2ccccc2S1(=O)=O)NN=Cc1ccccc1[N+](=O)[O-]", "organism": "HIV-1", "test": "viral replication", "system": "PBMC", "quantity": "EC90", "result": "> 100 µM"}
{"Molecule": "LSTFFRLFNGRRRRSVQWCA", "organism": "Streptococcus sanguis", "test": "OD600", "system": "peptide, ATCC 49295, 4 h single-species biofilm", "setting": "128 µg/ml, 5 min exposure, OD600 read over 5 h", "quantity": "biofilm growth", "result": "no effect"}
{"Molecule": "CCCCCCCOc1c(OC)cc(NC(C)CCCN)c2nc(C(C)(C)C)ccc12 (stereo not shown)", "organism": "Staphylococcus aureus", "test": "microbial killing", "system": "ATCC33591 MRSA", "setting": "drug-resistant strain", "quantity": "MBC", "result": "10 µg/mL"}
{"Molecule": "CP(=O)(O)CCC(N)C(=O)O (stereo not shown)", "organism": "Amaranthus palmeri", "setting": "60 g/ha, 13 days, AMAPA, post-emergence spray", "scale": "relative to: untreated (0%), complete kill (100%)", "quantity": "herbicidal activity", "result": "100%"}
{"Molecule": "CC[C@H](C)[C@H](NC(=O)[C@H](CCCCN)NC(=O)[C@H](CCC(=O)O)NC(=O)[C@H](CCCCN)NC(=O)[C@H](CO)NC(=O)[C@H](CCCCN)NC(=O)[C@H](CCCNC(=N)N)NC(=O)[C@H](Cc1ccccc1)NC(=O)[C@H](Cc1ccccc1)NC(=O)[C@H](CC(=O)O)NC(=O)CNC(=O)[C@H](CC(C)C)NC(=O)[C@@H](N)CC(C)C)C(=O)NCC(=O)N[C@@H](CCCCN)C(=O)N[C@@H](CCC(=O)O)C(=O)N[C@@H](Cc1ccccc1)C(=O)N[C@@H](CCCCN)C(=O)N[C@@H](CCCNC(=N)N)C(=O)N[C@H](C(=O)N[C@H](C(=O)N[C@@H](CCC(N)=O)C(=O)N[C@@H](CCCNC(=N)N)C(=O)N[C@H](C(=O)N[C@@H](CCCCN)C(=O)N[C@@H](CC(=O)O)C(=O)N[C@@H](Cc1ccccc1)C(=O)N[C@@H](CC(C)C)C(=O)N[C@@H](CCCNC(=N)N)C(=O)N[C@@H](CC(N)=O)C(=O)N[C@@H](CC(C)C)C(=O)N[C@H](C(=O)N1CCC[C@H]1C(=O)N[C@@H](CCCNC(=N)N)C(=O)N[C@H](C(=O)N[C@@H](CCC(=O)O)C(=O)N[C@@H](CO)C(=O)O)[C@@H](C)O)C(C)C)[C@@H](C)CC)C(C)C)[C@@H](C)CC", "organism": "hepatitis B virus genotype C", "test": "NanoLuc reporter virus", "system": "HepG2-NTCP", "setting": "10 µM, 7 d, producer cells treated", "scale": "relative to: control treated", "quantity": "infectivity", "result": "58.8%"}
{"Molecule": "CCCCCCCOc1c(OC)cc(NC(C)CCCNC(=O)C(N)CCCNC(=N)N)c2nc(C(C)(C)C)ccc12 (stereo not shown)", "organism": "Staphylococcus aureus", "system": "MRSA ATCC 33591", "quantity": "MBC", "result": "> 20 µg/mL"}
{"Molecule": "guanidine hydrochloride", "organism": "coxsackievirus B3", "test": "cytopathic effect", "system": "HeLa, wild type", "setting": "48 h", "quantity": "IC50", "result": "592 µM"}
{"Molecule": "Cc1ccccc1-c1nc(CN2CCC(C(=O)NCCC3=CCCCC3)CC2)c(C)o1", "organism": "Hepatitis C virus", "test": "HCV infection, Gaussia luciferase reporter", "system": "Huh7.5.1 reporter cells", "scale": "relative to: 10 µM cyclosporin A, DMSO, negative means inhibition", "quantity": "maximal response", "result": "-73.5%"}
{"Molecule": "TRTRVSRLY", "organism": "rhesus rotavirus", "system": "peptide, mouse cholangiocytes", "setting": "2 mM, 18 h, 37 °C", "scale": "relative to: medium control", "quantity": "viral yield", "result": "59.9%"}
{"Molecule": "insulin human", "organism": "EcoHIV", "test": "radial arm water maze", "system": "infected C57BL/6J mice", "setting": "intranasal, dose not given, after discontinuation", "quantity": "time to memory impairment return", "result": "≤ 24 h"}
{"Molecule": "CC(=NNC(=O)CN1c2c(-c3ccccc3)n[nH]c2-c2ccccc2S1(=O)=O)c1sccc1Cl", "organism": "HIV-1", "test": "viral replication", "system": "PBMC", "quantity": "EC90", "result": "61.2 µM"}
{"Molecule": "CC[C@H](C)[C@H](NC(=O)[C@H](CCCCN)NC(=O)[C@H](CCC(=O)O)NC(=O)[C@H](CCCCN)NC(=O)[C@H](CO)NC(=O)[C@H](CCCCN)NC(=O)[C@H](CCCNC(=N)N)NC(=O)[C@H](Cc1ccccc1)NC(=O)[C@H](Cc1ccccc1)NC(=O)[C@H](CC(=O)O)NC(=O)CNC(=O)[C@H](CC(C)C)NC(=O)[C@@H](N)CC(C)C)C(=O)NCC(=O)N[C@@H](CCCCN)C(=O)N[C@@H](CCC(=O)O)C(=O)N[C@@H](Cc1ccccc1)C(=O)N[C@@H](CCCCN)C(=O)N[C@@H](CCCNC(=N)N)C(=O)N[C@H](C(=O)N[C@H](C(=O)N[C@@H](CCC(N)=O)C(=O)N[C@@H](CCCNC(=N)N)C(=O)N[C@H](C(=O)N[C@@H](CCCCN)C(=O)N[C@@H](CC(=O)O)C(=O)N[C@@H](Cc1ccccc1)C(=O)N[C@@H](CC(C)C)C(=O)N[C@@H](CCCNC(=N)N)C(=O)N[C@@H](CC(N)=O)C(=O)N[C@@H](CC(C)C)C(=O)N[C@H](C(=O)N1CCC[C@H]1C(=O)N[C@@H](CCCNC(=N)N)C(=O)N[C@H](C(=O)N[C@@H](CCC(=O)O)C(=O)N[C@@H](CO)C(=O)O)[C@@H](C)O)C(C)C)[C@@H](C)CC)C(C)C)[C@@H](C)CC", "organism": "Staphylococcus aureus", "system": "JE2 SAUSA300_0646 graS transposon mutant", "setting": "12.5% TSB", "scale": "relative to: wild type over mutant", "quantity": "MIC ratio", "result": "2 fold"}
{"note": "For quick reference, copied from above:"}
{"Molecule": "TRTRVSRLY", "organism": "rhesus rotavirus", "system": "peptide, mouse cholangiocytes", "setting": "2 mM, 18 h, 37 °C", "scale": "relative to: medium control", "quantity": "viral yield", "result": "59.9%"}
{"Molecule": "insulin human", "organism": "EcoHIV", "test": "radial arm water maze", "system": "infected C57BL/6J mice", "setting": "intranasal, dose not given, after discontinuation", "quantity": "time to memory impairment return", "result": "≤ 24 h"}
{"Molecule": "CC(=NNC(=O)CN1c2c(-c3ccccc3)n[nH]c2-c2ccccc2S1(=O)=O)c1sccc1Cl", "organism": "HIV-1", "test": "viral replication", "system": "PBMC", "quantity": "EC90", "result": "61.2 µM"}
{"Molecule": "CC[C@H](C)[C@H](NC(=O)[C@H](CCCCN)NC(=O)[C@H](CCC(=O)O)NC(=O)[C@H](CCCCN)NC(=O)[C@H](CO)NC(=O)[C@H](CCCCN)NC(=O)[C@H](CCCNC(=N)N)NC(=O)[C@H](Cc1ccccc1)NC(=O)[C@H](Cc1ccccc1)NC(=O)[C@H](CC(=O)O)NC(=O)CNC(=O)[C@H](CC(C)C)NC(=O)[C@@H](N)CC(C)C)C(=O)NCC(=O)N[C@@H](CCCCN)C(=O)N[C@@H](CCC(=O)O)C(=O)N[C@@H](Cc1ccccc1)C(=O)N[C@@H](CCCCN)C(=O)N[C@@H](CCCNC(=N)N)C(=O)N[C@H](C(=O)N[C@H](C(=O)N[C@@H](CCC(N)=O)C(=O)N[C@@H](CCCNC(=N)N)C(=O)N[C@H](C(=O)N[C@@H](CCCCN)C(=O)N[C@@H](CC(=O)O)C(=O)N[C@@H](Cc1ccccc1)C(=O)N[C@@H](CC(C)C)C(=O)N[C@@H](CCCNC(=N)N)C(=O)N[C@@H](CC(N)=O)C(=O)N[C@@H](CC(C)C)C(=O)N[C@H](C(=O)N1CCC[C@H]1C(=O)N[C@@H](CCCNC(=N)N)C(=O)N[C@H](C(=O)N[C@@H](CCC(=O)O)C(=O)N[C@@H](CO)C(=O)O)[C@@H](C)O)C(C)C)[C@@H](C)CC)C(C)C)[C@@H](C)CC", "organism": "Staphylococcus aureus", "system": "JE2 SAUSA300_0646 graS transposon mutant", "setting": "12.5% TSB", "scale": "relative to: wild type over mutant", "quantity": "MIC ratio", "result": "2 fold"}
